Assay results of several laboratories.
Numbered parts are unrelated; each lists some results of a single study. “And” joins repeats or separate records; there may be more than shown.
Chain of UniProt P51817 (whole entry, looked up): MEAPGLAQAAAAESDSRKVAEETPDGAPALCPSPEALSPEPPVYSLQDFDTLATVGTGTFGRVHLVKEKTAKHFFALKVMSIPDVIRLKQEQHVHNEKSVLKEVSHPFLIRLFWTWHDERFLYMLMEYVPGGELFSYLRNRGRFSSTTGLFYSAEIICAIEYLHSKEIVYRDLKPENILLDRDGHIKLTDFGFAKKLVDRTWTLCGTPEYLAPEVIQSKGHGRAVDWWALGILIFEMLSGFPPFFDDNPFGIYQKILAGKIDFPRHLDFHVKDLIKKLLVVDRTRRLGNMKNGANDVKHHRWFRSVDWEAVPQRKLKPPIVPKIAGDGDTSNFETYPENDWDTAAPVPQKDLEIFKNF
Chain of UniProt Q9H422 (whole entry, looked up): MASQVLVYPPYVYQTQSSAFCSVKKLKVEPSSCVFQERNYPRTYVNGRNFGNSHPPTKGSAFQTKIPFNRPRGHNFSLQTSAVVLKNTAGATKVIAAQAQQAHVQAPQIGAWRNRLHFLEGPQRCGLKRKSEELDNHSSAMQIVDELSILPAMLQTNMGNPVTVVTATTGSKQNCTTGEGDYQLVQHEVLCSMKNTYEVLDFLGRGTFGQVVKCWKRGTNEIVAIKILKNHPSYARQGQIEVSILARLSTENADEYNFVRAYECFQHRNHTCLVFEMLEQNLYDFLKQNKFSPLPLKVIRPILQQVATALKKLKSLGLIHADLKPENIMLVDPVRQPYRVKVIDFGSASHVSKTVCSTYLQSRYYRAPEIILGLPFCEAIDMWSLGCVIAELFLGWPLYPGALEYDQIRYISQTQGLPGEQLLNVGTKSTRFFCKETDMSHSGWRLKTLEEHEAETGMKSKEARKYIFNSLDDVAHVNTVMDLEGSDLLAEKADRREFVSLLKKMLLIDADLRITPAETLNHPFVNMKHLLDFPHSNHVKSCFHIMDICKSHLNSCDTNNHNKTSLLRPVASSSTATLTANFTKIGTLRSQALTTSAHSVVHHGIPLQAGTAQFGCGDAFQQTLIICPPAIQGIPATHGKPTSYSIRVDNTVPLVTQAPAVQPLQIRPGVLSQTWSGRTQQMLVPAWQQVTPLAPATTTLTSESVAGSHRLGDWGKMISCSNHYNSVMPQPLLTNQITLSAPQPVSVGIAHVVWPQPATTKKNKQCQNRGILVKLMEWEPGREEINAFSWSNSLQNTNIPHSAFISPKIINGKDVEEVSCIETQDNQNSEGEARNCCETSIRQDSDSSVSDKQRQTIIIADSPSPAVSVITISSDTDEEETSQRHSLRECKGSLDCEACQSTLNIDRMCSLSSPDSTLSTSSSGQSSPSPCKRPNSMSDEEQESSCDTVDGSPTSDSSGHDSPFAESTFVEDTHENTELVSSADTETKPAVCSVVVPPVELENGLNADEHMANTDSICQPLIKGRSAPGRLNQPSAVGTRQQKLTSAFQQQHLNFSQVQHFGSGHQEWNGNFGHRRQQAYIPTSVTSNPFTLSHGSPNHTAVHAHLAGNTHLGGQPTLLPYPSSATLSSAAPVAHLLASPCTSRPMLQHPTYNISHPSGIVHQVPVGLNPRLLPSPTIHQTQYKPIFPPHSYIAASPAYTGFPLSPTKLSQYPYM
Chain of UniProt P51451 (whole entry, looked up): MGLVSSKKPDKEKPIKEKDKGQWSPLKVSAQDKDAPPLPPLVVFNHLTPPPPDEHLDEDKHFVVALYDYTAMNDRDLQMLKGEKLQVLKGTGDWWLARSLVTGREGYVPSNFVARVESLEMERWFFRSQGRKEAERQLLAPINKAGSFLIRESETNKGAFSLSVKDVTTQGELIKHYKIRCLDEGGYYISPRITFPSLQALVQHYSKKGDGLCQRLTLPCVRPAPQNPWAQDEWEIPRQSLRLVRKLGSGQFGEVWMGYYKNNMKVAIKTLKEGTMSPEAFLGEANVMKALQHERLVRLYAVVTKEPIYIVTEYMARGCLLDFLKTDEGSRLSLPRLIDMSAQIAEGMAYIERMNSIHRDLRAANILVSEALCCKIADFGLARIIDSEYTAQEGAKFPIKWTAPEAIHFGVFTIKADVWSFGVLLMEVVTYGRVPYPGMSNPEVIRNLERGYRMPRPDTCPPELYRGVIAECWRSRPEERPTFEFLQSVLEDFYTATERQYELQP
Chain of UniProt Q9HC98 (whole entry, looked up): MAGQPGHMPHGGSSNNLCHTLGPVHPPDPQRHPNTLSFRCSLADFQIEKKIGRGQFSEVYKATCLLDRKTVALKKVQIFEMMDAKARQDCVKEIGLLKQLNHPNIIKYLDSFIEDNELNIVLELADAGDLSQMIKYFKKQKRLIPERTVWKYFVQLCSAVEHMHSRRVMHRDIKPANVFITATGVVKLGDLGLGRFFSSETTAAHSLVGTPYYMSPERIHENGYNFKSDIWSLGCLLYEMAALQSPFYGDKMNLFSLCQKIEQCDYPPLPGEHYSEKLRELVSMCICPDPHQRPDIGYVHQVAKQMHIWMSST
Chain of UniProt P17948 (whole entry, looked up): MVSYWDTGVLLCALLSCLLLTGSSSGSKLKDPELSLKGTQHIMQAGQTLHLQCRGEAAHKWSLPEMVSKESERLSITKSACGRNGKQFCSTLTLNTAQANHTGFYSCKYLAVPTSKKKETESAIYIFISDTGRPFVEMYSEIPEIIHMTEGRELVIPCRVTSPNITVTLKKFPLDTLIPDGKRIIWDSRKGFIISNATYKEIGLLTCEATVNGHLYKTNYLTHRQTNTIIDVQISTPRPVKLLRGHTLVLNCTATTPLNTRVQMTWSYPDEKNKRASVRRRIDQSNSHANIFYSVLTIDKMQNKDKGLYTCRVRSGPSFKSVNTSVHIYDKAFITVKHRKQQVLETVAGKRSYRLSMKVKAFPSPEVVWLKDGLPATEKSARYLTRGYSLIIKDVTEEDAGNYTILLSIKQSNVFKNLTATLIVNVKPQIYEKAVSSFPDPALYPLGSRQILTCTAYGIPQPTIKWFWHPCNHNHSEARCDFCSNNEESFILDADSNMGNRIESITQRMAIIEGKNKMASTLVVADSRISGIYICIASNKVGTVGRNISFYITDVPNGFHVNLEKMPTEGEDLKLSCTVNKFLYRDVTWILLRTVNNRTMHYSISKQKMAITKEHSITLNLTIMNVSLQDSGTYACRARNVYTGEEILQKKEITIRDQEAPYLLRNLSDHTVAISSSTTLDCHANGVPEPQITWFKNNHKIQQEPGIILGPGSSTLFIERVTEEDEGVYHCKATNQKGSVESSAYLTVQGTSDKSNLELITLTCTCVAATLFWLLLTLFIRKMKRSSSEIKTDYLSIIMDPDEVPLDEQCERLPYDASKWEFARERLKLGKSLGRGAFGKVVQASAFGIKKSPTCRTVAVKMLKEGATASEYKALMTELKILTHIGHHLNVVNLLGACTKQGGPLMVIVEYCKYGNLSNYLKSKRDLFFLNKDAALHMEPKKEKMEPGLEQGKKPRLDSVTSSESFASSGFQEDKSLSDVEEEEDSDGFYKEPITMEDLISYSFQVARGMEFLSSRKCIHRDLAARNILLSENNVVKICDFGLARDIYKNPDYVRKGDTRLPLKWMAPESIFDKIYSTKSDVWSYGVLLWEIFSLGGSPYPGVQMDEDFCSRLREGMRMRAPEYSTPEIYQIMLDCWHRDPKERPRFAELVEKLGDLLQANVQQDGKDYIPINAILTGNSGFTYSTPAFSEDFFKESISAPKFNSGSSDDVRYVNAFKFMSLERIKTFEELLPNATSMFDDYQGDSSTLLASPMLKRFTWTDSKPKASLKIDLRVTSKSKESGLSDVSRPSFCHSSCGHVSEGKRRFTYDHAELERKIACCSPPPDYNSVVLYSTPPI
Chain of UniProt O14976 (whole entry, looked up): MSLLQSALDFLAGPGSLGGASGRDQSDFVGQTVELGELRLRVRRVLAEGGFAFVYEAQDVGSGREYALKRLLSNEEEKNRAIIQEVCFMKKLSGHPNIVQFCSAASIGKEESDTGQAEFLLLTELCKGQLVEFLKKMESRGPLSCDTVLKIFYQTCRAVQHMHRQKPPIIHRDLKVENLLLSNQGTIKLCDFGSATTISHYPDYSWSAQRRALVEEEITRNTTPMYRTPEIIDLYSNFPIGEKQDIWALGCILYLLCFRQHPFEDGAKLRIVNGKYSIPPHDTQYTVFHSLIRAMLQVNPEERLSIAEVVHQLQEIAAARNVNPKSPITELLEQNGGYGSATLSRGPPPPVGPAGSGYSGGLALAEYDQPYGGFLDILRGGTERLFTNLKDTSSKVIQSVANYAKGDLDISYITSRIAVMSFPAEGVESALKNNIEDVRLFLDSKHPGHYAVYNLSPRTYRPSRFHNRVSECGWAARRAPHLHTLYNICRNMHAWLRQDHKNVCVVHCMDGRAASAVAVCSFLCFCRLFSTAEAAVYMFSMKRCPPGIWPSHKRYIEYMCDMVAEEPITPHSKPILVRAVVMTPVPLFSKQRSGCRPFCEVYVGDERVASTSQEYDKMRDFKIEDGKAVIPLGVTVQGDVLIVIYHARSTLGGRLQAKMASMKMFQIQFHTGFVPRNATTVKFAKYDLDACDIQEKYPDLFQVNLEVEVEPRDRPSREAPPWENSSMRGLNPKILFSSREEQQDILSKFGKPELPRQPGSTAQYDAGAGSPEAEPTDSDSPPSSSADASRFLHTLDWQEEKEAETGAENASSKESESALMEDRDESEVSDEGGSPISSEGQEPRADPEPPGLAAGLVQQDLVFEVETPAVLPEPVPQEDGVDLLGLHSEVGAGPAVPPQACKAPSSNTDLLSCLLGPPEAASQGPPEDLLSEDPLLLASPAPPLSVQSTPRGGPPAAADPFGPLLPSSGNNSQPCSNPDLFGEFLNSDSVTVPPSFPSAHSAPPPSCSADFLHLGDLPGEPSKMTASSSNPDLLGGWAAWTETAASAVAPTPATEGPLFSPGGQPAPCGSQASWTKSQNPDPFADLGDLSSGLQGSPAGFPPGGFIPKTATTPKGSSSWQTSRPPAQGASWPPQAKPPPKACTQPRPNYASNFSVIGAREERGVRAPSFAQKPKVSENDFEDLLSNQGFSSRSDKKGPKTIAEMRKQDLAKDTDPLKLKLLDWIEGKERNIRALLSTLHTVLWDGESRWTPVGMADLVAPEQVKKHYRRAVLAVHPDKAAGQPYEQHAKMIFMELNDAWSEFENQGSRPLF

Series 1
Target: Dual serine/threonine and tyrosine protein kinase (DSTYK, Homo sapiens, UniProt Q6XUX3)
Read-out: enzyme activity
Mode: inhibitor
Tested at: 0.5 µM
Reference: control
Target sequence (Q6XUX3 1-929): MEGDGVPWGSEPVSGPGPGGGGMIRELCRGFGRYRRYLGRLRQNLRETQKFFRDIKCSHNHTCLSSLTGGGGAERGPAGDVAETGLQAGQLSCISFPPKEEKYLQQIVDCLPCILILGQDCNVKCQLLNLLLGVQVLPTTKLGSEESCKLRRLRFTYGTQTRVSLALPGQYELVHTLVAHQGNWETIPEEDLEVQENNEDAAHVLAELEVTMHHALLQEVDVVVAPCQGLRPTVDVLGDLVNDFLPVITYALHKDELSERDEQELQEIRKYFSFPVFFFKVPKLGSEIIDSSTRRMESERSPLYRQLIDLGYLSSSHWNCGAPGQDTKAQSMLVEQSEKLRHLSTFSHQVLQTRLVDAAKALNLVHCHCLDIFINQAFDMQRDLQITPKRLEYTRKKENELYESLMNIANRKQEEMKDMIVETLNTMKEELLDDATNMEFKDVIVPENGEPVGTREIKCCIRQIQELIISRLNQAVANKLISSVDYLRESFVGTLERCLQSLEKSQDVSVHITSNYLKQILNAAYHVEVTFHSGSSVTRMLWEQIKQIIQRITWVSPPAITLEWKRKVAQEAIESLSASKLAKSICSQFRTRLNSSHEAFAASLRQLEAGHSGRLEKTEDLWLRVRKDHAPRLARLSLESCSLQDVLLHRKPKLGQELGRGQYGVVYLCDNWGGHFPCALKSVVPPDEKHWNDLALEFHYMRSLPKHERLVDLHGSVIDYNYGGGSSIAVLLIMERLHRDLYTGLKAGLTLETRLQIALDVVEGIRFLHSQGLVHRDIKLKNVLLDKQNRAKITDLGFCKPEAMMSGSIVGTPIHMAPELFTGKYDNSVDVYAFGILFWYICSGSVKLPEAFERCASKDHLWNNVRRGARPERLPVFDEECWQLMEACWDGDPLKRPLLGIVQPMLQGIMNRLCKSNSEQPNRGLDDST
| Compound | remaining activity |
| --- | --- |
| O=S(=O)(c1cccc2cnccc12)N1CCCNCC1 | 90.4% |
| Cc1nc(-c2ccccc2)c(-c2ccncc2)o1 | 91% |
| O=c1c2ccccc2[nH]c(=S)n1CCN1CCC(=C(c2ccc(F)cc2)c2ccc(F)cc2)CC1 | 86.5% |
| O=C(Nc1cccc(Nc2cc(Nc3cccc(C(F)(F)F)c3)ncn2)c1)C1CC1 | 102% |
| Nc1[nH]nc2nc3ccccc3nc12 | 96% |
| CN(C)c1ccc(C=C2C(=O)Nc3ccccc32)cc1 | 103% |
| CC(C)[C@H](CO)Nc1nc(Nc2cc(N)cc(Cl)c2)c2ncn(C(C)C)c2n1 | 93.1% |
| COc1cc2ncnc(Nc3ccc(F)c(Cl)c3)c2cc1OCCCN1CCOCC1 | 101% |
| CNC(=O)c1cc(Oc2ccc(NC(=O)Nc3ccc(Cl)c(C(F)(F)F)c3)cc2)ccn1 | 97.7% |
| Cn1sc(=O)n(Cc2ccccc2)c1=O | 92.9% |
| O=C1NC(=O)C(c2cn(CCCO)c3ncccc23)=C1c1cnccn1 | 78% |
| Oc1ccc(-c2nc(-c3ccncc3)c(-c3ccc(F)cc3)[nH]2)cc1 | 100% |
| O=C(O)c1ccc2c3c1cccc3c(=O)n1c3ccccc3nc21 | 103% |
| OCC(O)CCON=C1C(c2c(O)[nH]c3ccccc23)=Nc2ccccc21 (centres unmarked) | 104% |
| COc1ccc(OC)c2c(=S)c3ccccc3[nH]c12 | 91.3% |
| Cn1c2ccccc2c2c3c(c4c5ccccc5n(CCC#N)c4c21)CNC3=O | 9.91% |
| COc1cc2ncnc(Nc3ccc(Oc4ccccc4)cc3)c2cc1OC | 91.6% |
| Nc1ncnc2n[nH]c(Nc3ccc(F)cc3)c12 | 109% |
| C#Cc1cccc(Nc2ncnc3cc(OCCOC)c(OCCOC)cc23)c1 | 107% |
| O=C1NC(=O)C(c2cn(CCCn3ccnc3)c3ccccc23)=C1Nc1ccccc1 | 102% |
| O=C(CCCc1ccc(-c2ccccc2F)cc1)Nc1ccc(O)cc1 | 103% |
| COc1ccc(C(=O)Nc2sc3c(c2C(N)=O)CCCC3)cc1OC | 92.2% |
| COc1ccc(CNC(=O)Nc2ncc([N+](=O)[O-])s2)cc1 | 96.2% |

Series 2
Compound: CNC(=O)Nc1ccc2c(c1)CC[C@@]21OC(=O)N(CC(=O)N(Cc2ccc(F)cc2)[C@@H](C)C(F)(F)F)C1=O
Read-out: cell-free assay
Method: competition with immobilised ligand
Tested at: 1 µM
| target | remaining binding |
| --- | --- |
| GAK (Homo sapiens, UniProt O14976) | 100% |
| DSTYK (Homo sapiens, UniProt Q6XUX3) | 78% |
| BLK (Homo sapiens, UniProt P51451) | 100% |
| LYN (Homo sapiens, UniProt P07948) | 89% |
| FLT3 (Homo sapiens, UniProt P36888, K663Q) | 100% |
| KDR (Homo sapiens, UniProt P35968) | 83% |
| FLT1 (Homo sapiens, UniProt P17948) | 100% |
| PDGFRB (Homo sapiens, UniProt P09619) | 100% |
| CSNK1E (Homo sapiens, UniProt P49674) | 80% |
| CDK2 (Homo sapiens, UniProt P24941) | 100% |
| PRKX (Homo sapiens, UniProt P51817) | 92% |
| CDK14 (Homo sapiens, UniProt O94921) | 79% |
| TNNI3K (Homo sapiens, UniProt Q59H18) | 97% |
| NEK6 (Homo sapiens, UniProt Q9HC98) | 86% |
| HIPK3 (Homo sapiens, UniProt Q9H422) | 73% |

Series 3
SMILES: CC(C)(C)c1cnc(CSc2cnc(NC(=O)C3CCN(C(=O)CCCSc4cccc5c4C(=O)N(C4CCC(=O)NC4=O)C5=O)CC3)s2)o1 (centres unmarked)
Cell line: HH
Method: CCK-8
| setting | viability |
| --- | --- |
| 50 nM | 100% and 97.5% |
| 10 nM | 100% and 97.3% |
| 100 nM | 97.7% and 99.7% |
| 500 nM | 18.4% and 17.5% |

Series 4
Cell line: mouse MPNST tumor cells
Method: high-content nuclear imaging
Item: cell number
Tested at: 10 µM
Time: 12 h
Setting: mean of 2 replicates
Reference: plate mean
Reading: higher = more cells
| SMILES | nuclei count |
| --- | --- |
| CC(C)(C)c1nc2c3cc[nH]c(=O)c3c3cc(F)ccc3c2[nH]1 | -1.49 z-score |
| Cc1cc(C(=O)N2Cc3cnn(C)c3Nc3ccccc32)ccc1CNC(=O)N1CCC[C@H]1C(=S)N1CCCN(C)CC1 | 0.991 z-score |
| O=c1oc(-c2ccc(C(F)(F)F)cc2)nn1Cc1cc(Cl)ccc1O | 0.95 z-score |
| Cc1ccc2c(c1)c1c3n2CCNC3CCC1 (centres unmarked) | 0.944 z-score |
| COc1ccc2c(c1)C(C(=O)N(Cc1ccc(N(C)C)cc1)c1ccc(C(C)C)cc1)CCC2 (centres unmarked) | 1.01 z-score |
| O=C(O)c1cc(O)c2ccc(Cl)cc2n1 | -0.0748 z-score |
| CCC1(C)CC(=O)NC1=O (centres unmarked) | 0.0317 z-score |
| CN1CCOC(c2ccccc2)c2ccccc2C1 (centres unmarked) | 4.18 z-score |
| CCOc1cc(C(=O)N2CCC(N3CCN(C)CC3)CC2)ccc1Nc1ncc2c(n1)N(S(C)(=O)=O)c1ccccc1C(=O)N2C | -0.0767 z-score |
| N#CC(c1ccc(Cl)cc1)c1c(Cl)cc(-n2ncc(=O)[nH]c2=O)cc1Cl (centres unmarked) | 0.506 z-score |
| C#CCNc1nccc(-c2ccc(-n3ccnc3)cc2)n1 | 1.95 z-score |

Some of these lines once more (series 3):
| setting | viability |
| --- | --- |
| 50 nM | 100% and 97.5% |
| 500 nM | 18.4% and 17.5% |
| 10 nM | 100% and 97.3% |
| 100 nM | 97.7% and 99.7% |
